Measurements pooled from the literature.
Numbered parts are unrelated; each lists some results of a single study. Substitutions count along the parent as printed.

Set 1
Target: RNA binding protein fox-1 homolog 2, RRM domain, GST-SBP tag (RBFOX2, Homo sapiens, UniProt O43251-10, residues 100-194)
Method: RNA Bind-n-Seq
Form: RNA
Sample: in vitro
Concentration: 365 nM
Notes: natural RNA segment, single round, ends assumed
Baseline: no-protein control
Reading: higher = stronger binding
Quantity: RBNS enrichment (R)
Residues (chain): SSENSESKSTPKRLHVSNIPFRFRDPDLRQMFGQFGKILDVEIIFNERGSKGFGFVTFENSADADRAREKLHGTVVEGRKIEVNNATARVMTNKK
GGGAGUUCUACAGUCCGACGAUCGGCCACUGUGAUCUUGGCAGCCCUCCUGUUUAAGGGGCUGCCACCCUCCCUUACAGGGUGGUGUAUAGCCAGGGCUAUACAAAAAGGGUGGCUAGUGACCUUUUCUCUCUUGGAAUUCUCGGGUGCCAA: 0.253
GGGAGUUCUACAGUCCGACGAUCCACCACUCCCAGGCCUCUGACAUGAGGGACAUGUGACAGUGUCAUUCAGUAUUAUGUUCAAAAGACAUUUUUAUCCUGAUCAUAAUUAAUUUGAAAACUCUUUAAGUUCAUGGAAUUCUCGGGUGCCAA: 0.287
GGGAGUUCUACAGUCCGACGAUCUUCUUGCGUCUCCCUGUGAUGGGCCCUUAGGCCUGGCUGGGCCCAUUACAUAUCCCUGUGGUGGCUCUGGUGGCAGCUUUCUGUGGCCCCUGCUGUGUUGGCAGGCAGGUUGGAAUUCUCGGGUGCCAA: 0.54
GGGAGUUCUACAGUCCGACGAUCGUUUCUCUUUGUUAUCUAAAUGUUUCAGAAUUCAAUCGUGAAGGAACAGGCAUUUUACACUAUGAAGACAUUCUUUUGAGAUUUUUAUUUCAGUUGCUAUAUCAUAAGCAUGGAAUUCUCGGGUGCCAA: 0.537
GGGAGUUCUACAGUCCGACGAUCACAGUGCACGUGCAUGAUGGAGCUGUGGGACCCUCUCUGGGCUGGGUCUCAUCUGUAAGCUGCUACAGCCCAGAUGAACUCUGCCAGCCGCCAGUGCAUCCAGUACAGCGUGGAAUUCUCGGGUGCCAA: 17.7
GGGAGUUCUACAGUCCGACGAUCUUGUGGAAAAUGAAAAUUAGGAUUUCAUGAUUUUUUUUUUUCAGUCCCCGUGAAGGAGAGCCCUUCAUUUGGAGAUUAUGUUCUUUCGGGGAGAGGCUGAGGACUUAAAAUGGAAUUCUCGGGUGCCAA: 0.325
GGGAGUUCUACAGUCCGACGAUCUGGUUUUAGAGAACUAAUUUUGUUUUAGCAUUAAACUGUUGAACUUUUUUUUGUACUUAGAAAACCUAGAUACUGCAGUCAGAUUUUGGAAACUGCCGUAUAGUCACUGUUGGAAUUCUCGGGUGCCAA: 0.398
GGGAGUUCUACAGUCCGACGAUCCACACACAUAACAAGCCACAUAUUCUGUAAAAGCCUGAGAGAUUCCAGCCCAGAGAGAUUUGAUGCUUUCUUCUGUCUUCUGUGUAUGCUCAGACACACACACACACACAUGGAAUUCUCGGGUGCCAA: 1.03
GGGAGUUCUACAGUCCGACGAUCGGCCCUAAAGCAGGCCUGCACCCCCAUGUUCCGGGAGUACUCCCUGCAGGUUCUGAAGAAUGCUCGGGCCAUGGCAGAUGCCCUGCUAGAGCGAGGCUACUCACUGGUAUUGGAAUUCUCGGGUGCCAA: 0.426
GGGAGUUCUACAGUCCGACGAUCCGAUUCCUUCUGUAUGUCAUUCUUGUUAACAAGACCAUAACCUCCCCGACCUGACACCUCAUAUGAUCUCUGCUUCUAAAAAUCAGGUGUGAUCCUACUUGAAAACAACCUGGAAUUCUCGGGUGCCAA: 0.325
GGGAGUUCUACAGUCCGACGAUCACAAAUCUGAUAACUAUGCAGGUUUAAAUUUUCUUAUCUGAUUUUGGUAAGUAUUCCUUAGGUUUUUCUUUGAAAACCUGGGAUUGAGAGGUUGAUGAAUGGAAAUUCUUUGGAAUUCUCGGGUGCCAA: 0.434
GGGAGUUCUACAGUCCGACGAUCGUGCAUGCUGCUUCCGACACUGGCGCUGAGAUCCCUCCCCGAGGGGCUCUGUCUCUGCCUUGACCUCCUGGGUCAAGUCCCUGACCUCAGGAUACCUGCUGUCCACCCAAUGGAAUUCUCGGGUGCCAA: 6.8

Set 2
Target: Prothrombin, mature alpha-thrombin (F2, Homo sapiens, UniProt P00734)
Method: aptamer microarray, sandwich
Form: DNA with 2'F-ANA
Sample: in vitro
Concentration: 200 nM
Notes: whole 15-mer aptamer, many near background
Together with: Cy3 exosite-II aptamer, 400 nM
Reading: higher = stronger binding
Quantity: mean fluorescence intensity
Sequence: GGTTGGTGTGGTTGG
2'F-ANA at 2 4 6 15: 273 a.u.
2'F-ANA at 1 3 8 9 10 12 13 14: 58.6 a.u.
2'F-ANA at 1 2 3 4 5 8 11 13 15: 52.2 a.u.
2'F-ANA at 1 5 7 11 15: 50.2 a.u.
2'F-ANA at 1 2 4 5 6 7 8 10 11 12 13 14 15: 54.2 a.u.
2'F-ANA at 2 3 5 6 9 10 12 13 15: 52.8 a.u.
2'F-ANA at 3 5 9 13: 177 a.u.
2'F-ANA at 5 6 7 9 11 12 15: 107 a.u.
2'F-ANA at 2 9 11 13 15: 304 a.u.
2'F-ANA at 1 2 5 7 8 9 10 13 14 15: 42.6 a.u.
2'F-ANA at 1 6 9 12 14: 73.6 a.u.
2'F-ANA at 1 2 3 5 6 7 8 10 12 13 14 15: 112 a.u.
2'F-ANA at 2 6 7 8 9: 365 a.u.
2'F-ANA at 1 2 4 6 8 10 11 12 13 15: 60.7 a.u.
2'F-ANA at 2 10 14: 100 a.u.
2'F-ANA at 1 4 6 8 9 10 11 12: 93.5 a.u.

Set 3
Target: Sal-like protein 4, full length isoform B (SALL4, Homo sapiens, UniProt Q9UJQ4-2, residues 1-616)
Method: universal PBM
Form: double-stranded DNA, one strand shown
Sample: in vitro
Concentration: not given
Notes: 8-mer, flanks averaged, mean of replicates
Reading: higher = stronger binding
Quantity: E-score
ACCAAATA: 0.29
CATAGACG: 0.12
GTTGGATA: 0.141
AAACGACC: -0.136
AGGAGCCT: -0.339
ATTCGGAA: 0.0254
CAACCAGG: -0.214
GATGTGGA: 0.0731
CAAGAACC: -0.0459
CCTATTCA: 0.0196
ACAACAAC: 0.118
CCTAACGC: -0.0806
ATGTTTGC: 0.105
CTCACCAA: 0.138
ACATCTTG: 0.0947
TGCTTAAA: 0.145
CTCCCCTA: -0.107
CAGCCTCG: -0.207

Set 4
Target: CCNF, cyclin fold, Cln2 fusion (human)
Method: yeast growth competition, sequencing
Sample: yeast
Notes: strong parent motif
Baseline: not given
Reading: higher = stronger binding
Quantity: normalised enrichment score
Starting sequence: CDKN1A docking peptide (human); SKACRRLFGPVDS
SKAHRRLFGPVDS [C4H]: 4.15
SKACRRLSGPVDS [F8S]: 0.66
SKACRRLFGPVNS [D12N]: 7.26
SKACRDLFGPVDS [R6D]: 3.4
SKACRRLFGPWDS [V11W]: 8.39
SKYCRRLFGPVDS [A3Y]: 4.11
SKACRRLFGNVDS [P10N]: 7.08
SKACRRLVGPVDS [F8V]: 0.572
SKACRRLFTPVDS [G9T]: 7
SKACRRWFGPVDS [L7W]: 0.907
SKACMRLFGPVDS [R5M]: 0.521
SKACRRRFGPVDS [L7R]: 0.162
SKACRRGFGPVDS [L7G]: 0.571
SFACRRLFGPVDS [K2F]: 7.15
SKACHRLFGPVDS [R5H]: 0.776
SKACRRLFGPVSS [D12S]: 7.08
SKADRRLFGPVDS [C4D]: 0.704
SKLCRRLFGPVDS [A3L]: 7.1
SKACRRLFGAVDS [P10A]: 6.97
SKWCRRLFGPVDS [A3W]: 3.01
SKACRRLFFPVDS [G9F]: 8.56
SKECRRLFGPVDS [A3E]: 4.41
SKACRRLWGPVDS [F8W]: 3.68
SKACRRLDGPVDS [F8D]: 0.592
SKACRRLFGPVKS [D12K]: 7.08

Set 5
Target: ABI1, truncated, D143A, DHFR fusion (Arabidopsis thaliana)
Method: DHFR PCA, deep sequencing
Sample: yeast
Notes: methotrexate growth selection, single substitutions
Together with: (+)-ABA 2500 µM
Baseline: wild-type fitted maximum
Reading: higher = stronger binding
Quantity: relative binding score
Starting sequence: PYL1, truncated, DHFR fusion (Arabidopsis thaliana); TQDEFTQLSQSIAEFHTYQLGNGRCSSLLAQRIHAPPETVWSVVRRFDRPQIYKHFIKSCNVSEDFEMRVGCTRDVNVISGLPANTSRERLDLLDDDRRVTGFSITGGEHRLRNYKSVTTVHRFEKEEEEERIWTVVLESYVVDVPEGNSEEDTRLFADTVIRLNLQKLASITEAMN; partner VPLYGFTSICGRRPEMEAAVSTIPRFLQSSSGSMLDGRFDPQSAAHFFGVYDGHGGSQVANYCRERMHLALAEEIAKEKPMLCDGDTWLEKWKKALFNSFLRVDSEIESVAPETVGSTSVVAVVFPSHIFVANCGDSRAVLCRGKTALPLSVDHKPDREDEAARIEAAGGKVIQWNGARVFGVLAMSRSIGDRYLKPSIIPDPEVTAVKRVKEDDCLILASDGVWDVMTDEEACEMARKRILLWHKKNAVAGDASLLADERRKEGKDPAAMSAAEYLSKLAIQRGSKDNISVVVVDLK
I133M: 102%
Q167W: 74.5%
S87V: 77.2%
K54N: 65.1%
K58F: 85.6%
H16S: 36.5%
Q19S: 99.3%
S140N: 22.6%
N77T: 99.1%
N85S: 99.7%
I52V: 93.3%
M176P: 104%
